Measured values from different studies.
Each line is one published result; not all experiments were run side by side. Numbers after ± are the reported error.

`Nc1ncnc2c([C@@H]3N[C@H](CO)[C@@H](O)[C@H]3O)c[nH]c12` has an inhibition of 0% (Lassa mammarenavirus; viral replication; HeLa, Josiah; 1.6 µM).
`Cn1cnc(Cn2c(=O)[nH]/c(=N\c3cc4cn(C)nc4cc3Cl)n(Cc3cc(F)c(F)cc3F)c2=O)n1` has an MRT of 87.5 h (human, moderate renal impairment, plasma; oral, 375 mg single dose).
`LGASQRVAGDSGFAA` gave a responding donors of 15% (human CD4 T cells; AIM; peptide).
With `CC[C@H](C)[C@H](NC(=O)[C@H](CC(C)C)NC(=O)[C@H](Cc1c[nH]c2ccccc12)NC(=O)[C@H](CCC(N)=O)NC(=O)[C@@H](NC(=O)[C@H](Cc1ccccc1)NC(=O)[C@H](C)NC(=O)[C@H](CCCCNC(=O)COCCOCCNC(=O)COCCOCCNC(=O)CC[C@H](NC(=O)CCCCCCCCCCCCCCCCCCC(=O)O)C(=O)O)NC(=O)[C@H](CCC(N)=O)NC(=O)[C@H](C)NC(=O)[C@@H](NC(=O)[C@H](CCCCN)NC(=O)[C@H](CC(=O)O)NC(=O)[C@H](CC(C)C)NC(=O)C(C)(C)NC(=O)[C@@H](NC(=O)[C@H](CO)NC(=O)[C@H](Cc1ccc(O)cc1)NC(=O)[C@H](CC(=O)O)NC(=O)[C@H](CO)NC(=O)[C@@H](NC(=O)[C@H](Cc1ccccc1)NC(=O)[C@@H](NC(=O)CNC(=O)[C@H](CCC(=O)O)NC(=O)C(C)(C)NC(=O)[C@@H](N)Cc1ccc(O)cc1)[C@@H](C)O)[C@@H](C)O)[C@@H](C)CC)[C@@H](C)CC)C(C)C)C(=O)N[C@@H](C)C(=O)NCC(=O)NCC(=O)N1CCC[C@H]1C(=O)N[C@@H](CO)C(=O)N[C@@H](CO)C(=O)NCC(=O)N[C@@H](C)C(=O)N1CCC[C@H]1C(=O)N1CCC[C@H]1C(=O)N1CCC[C@H]1C(=O)N[C@@H](CO)C(N)=O` the amylase activity was 84.7 ± 28.9 U/L (healthy subjects, serum; 1.5 mg, day 29, multiple ascending dose).
`CC(C)[C@H](O)C(=O)N[C@@H](C)C(=O)N[C@@H]1C(=O)N(C)c2ccccc2-c2ccccc21` gave an inhibition of -0.475% (Replicase polyprotein 1ab, main protease (rep, Severe acute respiratory syndrome coronavirus 2, UniProt P0DTD1); viral replication, mKate2 reporter; SARS-CoV-2; 20 µM).
For `PVYSFLPGVYSVIYL`, the responding donors was 8% (human CD4 T cells; AIM; peptide).
